{"data": "Measurements pooled from the literature", "note": "Parts stem from different laboratories: compare values within a part only. Several values in a cell are separate wells, animals, samples, runs or records.", "UniProt O75116, sequence (whole entry, looked up)": "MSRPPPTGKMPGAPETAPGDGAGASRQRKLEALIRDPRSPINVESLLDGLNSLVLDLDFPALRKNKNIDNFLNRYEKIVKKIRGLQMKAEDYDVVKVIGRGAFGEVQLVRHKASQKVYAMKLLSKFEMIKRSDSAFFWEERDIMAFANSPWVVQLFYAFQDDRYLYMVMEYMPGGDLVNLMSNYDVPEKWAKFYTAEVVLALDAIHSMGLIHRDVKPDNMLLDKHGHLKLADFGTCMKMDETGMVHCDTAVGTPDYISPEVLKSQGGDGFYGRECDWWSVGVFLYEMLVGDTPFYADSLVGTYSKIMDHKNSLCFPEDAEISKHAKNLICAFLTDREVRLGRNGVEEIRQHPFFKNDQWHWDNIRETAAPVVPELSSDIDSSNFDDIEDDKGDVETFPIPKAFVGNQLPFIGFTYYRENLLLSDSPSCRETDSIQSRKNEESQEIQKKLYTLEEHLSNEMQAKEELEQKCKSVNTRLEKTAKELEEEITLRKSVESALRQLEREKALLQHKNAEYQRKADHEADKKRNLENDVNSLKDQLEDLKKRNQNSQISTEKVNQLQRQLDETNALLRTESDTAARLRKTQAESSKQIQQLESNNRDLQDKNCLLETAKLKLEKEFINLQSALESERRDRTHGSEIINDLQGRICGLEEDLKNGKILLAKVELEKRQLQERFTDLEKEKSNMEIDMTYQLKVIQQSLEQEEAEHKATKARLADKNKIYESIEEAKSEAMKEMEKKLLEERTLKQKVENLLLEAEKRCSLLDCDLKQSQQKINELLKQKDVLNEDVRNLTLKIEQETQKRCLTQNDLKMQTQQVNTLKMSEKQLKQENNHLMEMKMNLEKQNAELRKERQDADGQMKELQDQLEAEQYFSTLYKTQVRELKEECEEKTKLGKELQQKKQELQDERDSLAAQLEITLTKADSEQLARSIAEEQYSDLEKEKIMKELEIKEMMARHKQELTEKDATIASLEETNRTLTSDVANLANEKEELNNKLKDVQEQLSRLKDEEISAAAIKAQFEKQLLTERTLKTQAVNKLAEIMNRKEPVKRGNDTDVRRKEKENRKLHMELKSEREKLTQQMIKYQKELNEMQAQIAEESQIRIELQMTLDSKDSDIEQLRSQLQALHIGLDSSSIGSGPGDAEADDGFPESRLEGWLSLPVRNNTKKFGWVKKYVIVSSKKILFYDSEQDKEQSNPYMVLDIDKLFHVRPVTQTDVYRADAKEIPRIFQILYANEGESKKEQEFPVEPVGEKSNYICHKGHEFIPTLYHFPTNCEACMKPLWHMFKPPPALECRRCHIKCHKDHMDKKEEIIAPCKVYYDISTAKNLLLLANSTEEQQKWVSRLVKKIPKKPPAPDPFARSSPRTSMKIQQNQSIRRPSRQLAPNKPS", "UniProt Q8TD19, sequence (whole entry, looked up)": "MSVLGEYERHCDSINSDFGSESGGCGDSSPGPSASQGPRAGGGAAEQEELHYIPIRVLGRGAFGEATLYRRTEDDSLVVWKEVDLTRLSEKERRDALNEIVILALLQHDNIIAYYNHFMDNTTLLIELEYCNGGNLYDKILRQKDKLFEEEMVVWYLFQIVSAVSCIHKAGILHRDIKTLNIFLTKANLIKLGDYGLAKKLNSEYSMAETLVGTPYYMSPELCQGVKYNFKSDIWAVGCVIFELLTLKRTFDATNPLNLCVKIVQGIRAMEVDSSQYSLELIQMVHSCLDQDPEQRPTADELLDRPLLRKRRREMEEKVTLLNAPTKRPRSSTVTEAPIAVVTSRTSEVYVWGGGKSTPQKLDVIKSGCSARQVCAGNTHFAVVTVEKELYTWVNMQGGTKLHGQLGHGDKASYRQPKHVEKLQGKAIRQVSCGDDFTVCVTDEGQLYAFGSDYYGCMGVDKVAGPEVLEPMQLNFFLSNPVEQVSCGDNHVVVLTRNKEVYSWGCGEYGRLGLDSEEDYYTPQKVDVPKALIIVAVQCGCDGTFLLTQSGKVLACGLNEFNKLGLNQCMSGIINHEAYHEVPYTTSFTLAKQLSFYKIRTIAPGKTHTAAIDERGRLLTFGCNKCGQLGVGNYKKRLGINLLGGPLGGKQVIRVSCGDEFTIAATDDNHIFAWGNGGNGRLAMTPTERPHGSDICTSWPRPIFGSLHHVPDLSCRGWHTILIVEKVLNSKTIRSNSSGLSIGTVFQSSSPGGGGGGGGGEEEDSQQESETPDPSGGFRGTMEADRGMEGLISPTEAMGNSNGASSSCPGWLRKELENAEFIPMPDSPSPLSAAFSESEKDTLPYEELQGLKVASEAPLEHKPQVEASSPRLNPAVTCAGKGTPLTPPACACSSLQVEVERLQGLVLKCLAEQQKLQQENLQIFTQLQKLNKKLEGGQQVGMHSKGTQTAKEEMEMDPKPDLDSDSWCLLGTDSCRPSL", "UniProt Q9H2G2, sequence (whole entry, looked up)": "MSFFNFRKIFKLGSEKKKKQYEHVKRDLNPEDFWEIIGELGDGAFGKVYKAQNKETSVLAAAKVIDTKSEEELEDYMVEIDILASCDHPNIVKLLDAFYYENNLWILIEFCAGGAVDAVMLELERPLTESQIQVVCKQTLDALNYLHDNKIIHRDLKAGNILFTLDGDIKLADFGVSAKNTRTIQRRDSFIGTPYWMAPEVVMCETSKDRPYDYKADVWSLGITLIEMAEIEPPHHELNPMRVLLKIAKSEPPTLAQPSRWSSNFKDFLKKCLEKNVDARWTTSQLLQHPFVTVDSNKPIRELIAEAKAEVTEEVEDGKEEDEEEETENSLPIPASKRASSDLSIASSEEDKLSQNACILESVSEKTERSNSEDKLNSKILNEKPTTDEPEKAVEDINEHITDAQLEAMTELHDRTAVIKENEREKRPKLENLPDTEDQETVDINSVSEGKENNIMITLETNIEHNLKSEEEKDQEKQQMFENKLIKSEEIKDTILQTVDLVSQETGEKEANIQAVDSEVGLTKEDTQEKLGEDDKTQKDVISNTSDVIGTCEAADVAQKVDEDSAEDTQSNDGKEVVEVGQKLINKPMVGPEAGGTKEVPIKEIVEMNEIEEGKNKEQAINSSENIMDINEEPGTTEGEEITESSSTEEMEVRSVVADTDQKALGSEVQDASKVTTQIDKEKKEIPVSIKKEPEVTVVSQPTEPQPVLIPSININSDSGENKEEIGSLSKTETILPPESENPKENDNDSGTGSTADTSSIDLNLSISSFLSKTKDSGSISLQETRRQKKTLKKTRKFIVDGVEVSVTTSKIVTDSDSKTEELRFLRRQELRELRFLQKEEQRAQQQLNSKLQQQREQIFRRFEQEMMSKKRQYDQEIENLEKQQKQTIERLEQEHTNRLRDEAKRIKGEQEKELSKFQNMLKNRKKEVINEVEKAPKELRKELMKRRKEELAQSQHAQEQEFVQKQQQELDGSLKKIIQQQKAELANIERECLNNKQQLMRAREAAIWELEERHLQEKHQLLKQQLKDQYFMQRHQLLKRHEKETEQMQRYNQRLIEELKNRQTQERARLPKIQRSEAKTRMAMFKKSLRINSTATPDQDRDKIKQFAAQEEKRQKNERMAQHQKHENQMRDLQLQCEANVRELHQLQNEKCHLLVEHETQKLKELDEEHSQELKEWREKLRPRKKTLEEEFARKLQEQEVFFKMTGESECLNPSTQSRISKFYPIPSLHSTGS", "UniProt Q9NR20, sequence (whole entry, looked up)": "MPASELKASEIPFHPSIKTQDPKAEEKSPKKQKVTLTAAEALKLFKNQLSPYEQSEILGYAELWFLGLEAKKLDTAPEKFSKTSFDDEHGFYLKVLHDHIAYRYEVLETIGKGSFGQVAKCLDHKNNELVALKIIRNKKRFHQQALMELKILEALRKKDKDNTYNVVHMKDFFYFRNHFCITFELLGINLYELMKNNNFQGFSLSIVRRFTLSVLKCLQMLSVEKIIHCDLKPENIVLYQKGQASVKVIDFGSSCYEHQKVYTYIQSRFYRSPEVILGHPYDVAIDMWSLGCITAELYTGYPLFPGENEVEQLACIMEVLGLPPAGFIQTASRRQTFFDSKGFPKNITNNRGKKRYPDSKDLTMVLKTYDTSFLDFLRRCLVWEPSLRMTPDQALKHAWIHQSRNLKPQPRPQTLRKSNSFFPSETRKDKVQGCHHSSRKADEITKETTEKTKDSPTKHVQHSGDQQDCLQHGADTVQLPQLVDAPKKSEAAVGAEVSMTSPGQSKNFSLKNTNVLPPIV", "UniProt P19784, sequence (whole entry, looked up)": "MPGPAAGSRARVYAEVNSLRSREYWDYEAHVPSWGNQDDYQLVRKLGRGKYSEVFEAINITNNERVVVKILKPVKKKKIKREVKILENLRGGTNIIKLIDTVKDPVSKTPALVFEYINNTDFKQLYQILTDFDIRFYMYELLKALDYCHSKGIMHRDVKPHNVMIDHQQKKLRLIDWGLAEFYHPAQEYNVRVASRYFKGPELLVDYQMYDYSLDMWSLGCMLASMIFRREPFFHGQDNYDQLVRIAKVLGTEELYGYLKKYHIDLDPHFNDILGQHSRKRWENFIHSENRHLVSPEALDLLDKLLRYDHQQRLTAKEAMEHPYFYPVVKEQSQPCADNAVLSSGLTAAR", "UniProt P50613, sequence (whole entry, looked up)": "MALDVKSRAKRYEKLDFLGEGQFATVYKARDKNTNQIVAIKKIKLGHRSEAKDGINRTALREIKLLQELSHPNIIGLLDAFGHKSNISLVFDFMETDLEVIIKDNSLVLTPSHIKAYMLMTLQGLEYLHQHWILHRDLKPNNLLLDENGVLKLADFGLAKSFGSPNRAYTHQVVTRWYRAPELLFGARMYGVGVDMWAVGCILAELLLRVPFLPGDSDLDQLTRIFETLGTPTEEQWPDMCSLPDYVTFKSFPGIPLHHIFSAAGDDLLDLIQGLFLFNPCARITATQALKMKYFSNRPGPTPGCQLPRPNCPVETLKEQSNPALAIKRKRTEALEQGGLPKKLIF"}
{"data": "Block 1", "organism": "Sarcocystis neurona", "read-out": "parasite growth", "tested at": "10 µM", "reference": "untreated"}
{"SMILES": "COc1ccc(CN2CCN(C(c3ccc(F)cc3)c3ccc(F)cc3)CC2)c(OC)c1OC.Cl.Cl", "log2 fold change": -0.66}
{"SMILES": "C[C@]12CCC(=O)C=C1CC[C@@H]1[C@@H]2C(=O)C[C@@]2(C)[C@H]1CC[C@]2(O)C(=O)CO", "log2 fold change": -0.0554}
{"SMILES": "CCCN[C@H]1CCc2nc(N)sc2C1.Cl", "log2 fold change": 0.46}
{"SMILES": "CC(COc1ccccc1Cc1ccccc1)N1CCCCC1.O=P(O)(O)O (centres unmarked)", "log2 fold change": -0.13}
{"SMILES": "CC1(C)C[C@@H]1C(=O)N/C(=C\\CCCCSC[C@H](N)C(=O)O)C(=O)[O-].[Na+]", "log2 fold change": 0.35}
{"SMILES": "Cl.Nc1nc2ccc(OC(F)(F)F)cc2s1", "log2 fold change": 1.81}
{"SMILES": "Nc1ncnc2c1ncn2[C@@H]1O[C@H](CO)C[C@H]1O", "log2 fold change": 0.27}
{"SMILES": "Cc1cccc(CN2CCN(C(c3ccccc3)c3ccc(Cl)cc3)CC2)c1.Cl.Cl (centres unmarked)", "log2 fold change": 0.21}
{"SMILES": "Nc1ncn([C@@H]2O[C@H](CO)[C@@H](O)[C@H]2O)c(=O)n1", "log2 fold change": 0.33}
{"data": "Block 2", "SMILES": "CS(=O)(=O)c1cc(C2(NC(=O)c3cncc4c3cnn4-c3ccc(F)cc3)CC2)ccn1", "method": "CellTiter-Glo", "tested at": "2 µM", "reference": "DMSO"}
{"cell line": "normal organoid sample F", "host": "human", "sample": "normal-adjacent epithelium", "viability": "85.4% and 84.5%"}
{"cell line": "normal-adjacent organoid sample F", "setting": "replicate mean", "viability": "84.9%"}
{"cell line": "normal organoid sample D", "host": "human", "sample": "normal-adjacent epithelium", "viability": "117% and 115%"}
{"cell line": "normal organoid sample E", "host": "human", "sample": "normal-adjacent epithelium", "viability": "87.3% and 74.4%"}
{"cell line": "sample D normal colon organoid", "setting": "mean of replicates", "viability": "116%"}
{"cell line": "normal organoid sample G", "host": "human", "sample": "normal-adjacent epithelium", "viability": "97.8%"}
{"cell line": "normal adjacent epithelium patient-derived organoids", "setting": "mean of five organoid lines", "viability": "97%"}
{"cell line": "normal-adjacent organoid sample E", "setting": "replicate mean", "viability": "80.9%"}
{"cell line": "normal organoid sample H", "host": "human", "sample": "normal-adjacent epithelium", "viability": "101% and 97.8%"}
{"data": "Block 3", "Structure (SMILES)": "CN(C)CCCn1cc(C2=C(c3c[nH]c4ccccc34)C(=O)NC2=O)c2ccccc21", "read-out": "enzyme activity", "action": "inhibitor", "tested at": "0.5 µM", "reference": "control"}
{"target": "DMPK (Homo sapiens, UniProt Q09013)", "remaining activity [%]": 94.7}
{"target": "Cyclin-dependent kinase 2, with cyclin A (CDK2, Homo sapiens, UniProt P24941)", "remaining activity [%]": 85.2}
{"target": "MAPK10 (Homo sapiens, UniProt P53779)", "remaining activity [%]": 99.3}
{"target": "EGFR (Homo sapiens, UniProt P00533)", "remaining activity [%]": 94}
{"target": "SLK (Homo sapiens, UniProt Q9H2G2)", "remaining activity [%]": 45.8}
{"target": "NTRK3 (Homo sapiens, UniProt Q16288)", "remaining activity [%]": 20.2}
{"target": "ROS1 (Homo sapiens, UniProt P08922)", "remaining activity [%]": 62.8}
{"target": "CDK7 (Homo sapiens, UniProt P50613)", "remaining activity [%]": 92.1}
{"target": "MAP3K8 (Homo sapiens, UniProt P41279)", "remaining activity [%]": 93.9}
{"target": "HIPK3 (Homo sapiens, UniProt Q9H422)", "remaining activity [%]": 102}
{"target": "GRK5 (Homo sapiens, UniProt P34947)", "remaining activity [%]": 71.6}
{"target": "PKN2 (Homo sapiens, UniProt Q16513)", "remaining activity [%]": 72.1}
{"target": "CAMK1G (Homo sapiens, UniProt Q96NX5)", "remaining activity [%]": 97.4}
{"target": "Aurora kinase A (AURKA, Homo sapiens, UniProt O14965)", "remaining activity [%]": 108}
{"target": "CSNK2A2 (Homo sapiens, UniProt P19784)", "remaining activity [%]": 92}
{"target": "BRSK1 (Homo sapiens, UniProt Q8TDC3)", "remaining activity [%]": 76.9}
{"target": "PRKD1 (Homo sapiens, UniProt Q15139)", "remaining activity [%]": 71.6}
{"target": "PTK2B (Homo sapiens, UniProt Q14289)", "remaining activity [%]": 98.5}
{"target": "CAMK1D (Homo sapiens, UniProt Q8IU85)", "remaining activity [%]": 68}
{"target": "MAP3K2 (Homo sapiens, UniProt Q9Y2U5)", "remaining activity [%]": 82.8}
{"target": "DYRK4 (Homo sapiens, UniProt Q9NR20)", "remaining activity [%]": 95}
{"target": "ROCK2 (Homo sapiens, UniProt O75116)", "remaining activity [%]": 113}
{"target": "RET (Homo sapiens, UniProt P07949)", "remaining activity [%]": 93.4}
{"target": "NEK9 (Homo sapiens, UniProt Q8TD19)", "remaining activity [%]": 100}
{"data": "Block 4", "SMILES": "CC(C)C(=O)N1CCN(c2nc(OC[C@@H]3CCCN3C)nc3c2CCN(c2cccc4cccc(Cl)c24)C3)C[C@@H]1CC#N", "read-out": "binding", "action": "competitor", "method": "NanoBRET", "cell line": "HEK293", "KRAS Q61R": "GTPase KRas (KRAS, Homo sapiens, UniProt P01116, Q61R)", "KRAS Q61H": "GTPase KRas (KRAS, Homo sapiens, UniProt P01116, Q61H)", "KRAS G12D": "GTPase KRas (KRAS, Homo sapiens, UniProt P01116, G12D)", "KRAS G13D": "GTPase KRas (KRAS, Homo sapiens, UniProt P01116, G13D)"}
{"target": "KRAS Q61R", "tested at": "5.08 nM", "normalized BRET": "90.3% and 111% and 100%"}
{"target": "GTPase KRas (KRAS, Homo sapiens, UniProt P01116, Q61L)", "tested at": "15.2 nM", "normalized BRET": "96.8% and 102% and 92.8%"}
{"target": "KRAS Q61H", "tested at": "1.24 µM", "normalized BRET": "91% and 105% and 92.7%"}
{"target": "KRAS Q61H", "tested at": "11.1 µM", "normalized BRET": "87.1% and 75.9% and 79.3%"}
{"target": "KRAS G12D", "tested at": "33.3 µM", "normalized BRET": "136% and 111% and 133%"}
{"target": "KRAS G13D", "tested at": "3.7 µM", "normalized BRET": "97.6% and 88.8% and 88.9%"}
{"target": "KRAS G13D", "tested at": "11.1 µM", "normalized BRET": "76.8% and 79.2% and 89.2%"}
{"target": "KRAS G12D", "tested at": "412 nM", "normalized BRET": "95.8% and 89.9% and 102%"}
{"target": "KRAS Q61R", "tested at": "412 nM", "normalized BRET": "104% and 91% and 103%"}
{"target": "KRAS Q61H", "tested at": "3.7 µM", "normalized BRET": "91.8% and 90.9% and 89.5%"}
{"target": "KRAS Q61R", "tested at": "45.7 nM", "normalized BRET": "105% and 104% and 89%"}
{"note": "For quick reference, copied from above (block 4):"}
{"target": "KRAS G13D", "tested at": "11.1 µM", "normalized BRET": "76.8% and 79.2% and 89.2%"}
{"target": "KRAS Q61R", "tested at": "45.7 nM", "normalized BRET": "105% and 104% and 89%"}
{"target": "KRAS Q61H", "tested at": "1.24 µM", "normalized BRET": "91% and 105% and 92.7%"}
{"target": "KRAS Q61R", "tested at": "5.08 nM", "normalized BRET": "90.3% and 111% and 100%"}
